Experimental data from different studies.
Each numbered part is a random draw from the data of one study; scales do not carry over between parts. Changes are numbered by the printed parent chain.
UniProt O15294, sequence (whole entry, looked up): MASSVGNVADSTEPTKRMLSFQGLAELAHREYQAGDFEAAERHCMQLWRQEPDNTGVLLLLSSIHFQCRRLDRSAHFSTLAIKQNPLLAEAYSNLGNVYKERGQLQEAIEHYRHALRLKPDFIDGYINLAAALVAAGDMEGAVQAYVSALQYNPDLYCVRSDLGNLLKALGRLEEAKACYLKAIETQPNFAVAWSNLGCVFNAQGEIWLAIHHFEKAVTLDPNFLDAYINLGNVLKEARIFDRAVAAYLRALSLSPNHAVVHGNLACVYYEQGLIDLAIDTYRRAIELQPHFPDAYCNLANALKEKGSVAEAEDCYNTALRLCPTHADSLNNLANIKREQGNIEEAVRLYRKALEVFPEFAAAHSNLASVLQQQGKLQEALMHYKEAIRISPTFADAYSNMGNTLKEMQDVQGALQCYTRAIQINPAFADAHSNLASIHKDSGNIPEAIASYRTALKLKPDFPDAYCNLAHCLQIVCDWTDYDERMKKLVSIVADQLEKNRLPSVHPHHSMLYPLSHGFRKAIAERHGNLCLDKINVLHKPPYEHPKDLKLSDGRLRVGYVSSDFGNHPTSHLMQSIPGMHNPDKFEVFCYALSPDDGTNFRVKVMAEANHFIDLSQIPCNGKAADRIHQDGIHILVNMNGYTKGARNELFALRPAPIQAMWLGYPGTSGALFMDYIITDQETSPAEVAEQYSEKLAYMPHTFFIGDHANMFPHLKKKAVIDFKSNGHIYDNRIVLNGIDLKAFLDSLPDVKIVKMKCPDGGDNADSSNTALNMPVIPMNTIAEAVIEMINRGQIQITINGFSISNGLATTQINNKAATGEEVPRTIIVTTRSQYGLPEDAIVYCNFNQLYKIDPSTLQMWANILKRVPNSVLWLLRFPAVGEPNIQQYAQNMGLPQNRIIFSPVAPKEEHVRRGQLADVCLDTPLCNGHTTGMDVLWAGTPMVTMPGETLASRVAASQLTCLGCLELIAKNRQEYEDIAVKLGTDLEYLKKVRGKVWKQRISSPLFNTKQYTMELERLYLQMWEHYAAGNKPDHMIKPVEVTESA

Sample 1
Target: Interferon regulatory factor 5, full length, phosphomimetic (IRF5, Homo sapiens, UniProt Q13568-2, residues 1-514, K96S/S451D/S453D/S456D/S462D)
Technique: protein-binding microarray
Molecule type: double-stranded DNA, one strand shown
Matrix: in vitro
Concentration: 250 nM
Setting: 60-bp whole probe
With: salmon DNA 0.4 mg/ml
Reference: random background probes
Direction: higher = stronger binding
All sequences stand within: GCCTAGCAC … GTCTTGATTCGCTTGACGCTGCTG
`GACGGACTGGGACTGGGTACGTGCTAG` has a log fluorescence of -0.585 z-score.
The log fluorescence of `TTACGTATCCTACTGCTTTAGTGCTAG` is reported as 0.682 z-score.
`GACAATATCGGGTATCGAGACGTGCTA` gave a log fluorescence of 3.95 z-score.
For `GGCCCTGTCCTTTTCTTTACGTGCTAG`, the log fluorescence was -0.231 z-score.
`GACGGACTGGGGGCTGGGGACGTGCTA` gave a log fluorescence of 0.529 z-score.
The log fluorescence of `TTAGGTATCGACTTACGGTTAGTGCTA` is reported as 3.81 z-score.
`AGAGAGAGTGAGGAACAACAGTGCTAG` gave a log fluorescence of -0.298 z-score.
With `AATTTTGTCATCTATAATGGAGTGCTA` the log fluorescence was 0.92 z-score.

Sample 2
Target: ABI1, truncated, D143A, DHFR fusion (Arabidopsis thaliana)
Technique: DHFR PCA, deep sequencing
Matrix: yeast
Setting: methotrexate growth selection, single substitutions
With: (+)-ABA 200 µM
Reference: wild-type fitted maximum
Direction: higher = stronger binding
Starting sequence: PYL1, truncated, DHFR fusion (Arabidopsis thaliana); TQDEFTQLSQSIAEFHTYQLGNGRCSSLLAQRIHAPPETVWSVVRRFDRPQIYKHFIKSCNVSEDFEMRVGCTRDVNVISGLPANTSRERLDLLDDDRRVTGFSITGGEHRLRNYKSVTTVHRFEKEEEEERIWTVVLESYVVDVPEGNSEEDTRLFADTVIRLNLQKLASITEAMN; partner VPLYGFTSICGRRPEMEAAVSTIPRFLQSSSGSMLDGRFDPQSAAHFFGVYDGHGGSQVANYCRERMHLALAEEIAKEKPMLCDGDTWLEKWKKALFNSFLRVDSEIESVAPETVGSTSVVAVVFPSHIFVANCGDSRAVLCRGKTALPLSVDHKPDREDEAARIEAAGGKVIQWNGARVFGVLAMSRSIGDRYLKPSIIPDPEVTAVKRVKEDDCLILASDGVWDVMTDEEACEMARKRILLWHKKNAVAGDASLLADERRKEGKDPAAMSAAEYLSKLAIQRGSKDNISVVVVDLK
`F124W` — result for “relative binding score”: 111%.
`V43H`: “relative binding score” 81.9%.
For `S150Q`, “relative binding score” read 77.4%.
For `T173P`, “relative binding score” read 10.9%.
`R90D` — result for “relative binding score”: 22.7%.
For `T173F`, “relative binding score” read 84%.
`T160Q`: “relative binding score” 75.5%.
`Q19Y`: “relative binding score” 93.1%.

Mixed results
P1: PafA, mature enzyme, eGFP fusion (Elizabethkingia meningoseptica, UniProt Q9KJX5); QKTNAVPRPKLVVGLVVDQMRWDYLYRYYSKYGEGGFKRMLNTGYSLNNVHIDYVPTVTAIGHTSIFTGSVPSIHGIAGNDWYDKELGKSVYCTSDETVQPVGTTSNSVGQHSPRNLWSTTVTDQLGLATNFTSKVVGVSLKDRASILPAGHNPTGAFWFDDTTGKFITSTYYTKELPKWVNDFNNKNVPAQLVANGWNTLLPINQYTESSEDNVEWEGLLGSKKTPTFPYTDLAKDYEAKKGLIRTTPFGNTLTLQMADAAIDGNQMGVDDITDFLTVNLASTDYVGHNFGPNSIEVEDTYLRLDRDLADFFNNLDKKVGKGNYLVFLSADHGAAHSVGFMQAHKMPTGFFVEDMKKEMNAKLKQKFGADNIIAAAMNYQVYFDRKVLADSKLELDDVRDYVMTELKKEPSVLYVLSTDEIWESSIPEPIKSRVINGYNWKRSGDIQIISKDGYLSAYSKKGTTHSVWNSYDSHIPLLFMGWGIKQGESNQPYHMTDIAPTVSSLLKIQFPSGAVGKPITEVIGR
For `AQQFFPLYQMNFKAK`, “enrichment fold change” read 2.01 (UDP-N-acetylglucosamine--peptide N-acetylglucosaminyltransferase 110 kDa subunit (OGT, Homo sapiens, UniProt O15294); binding, phage display NGS; peptide; concentration not given; reference: input library).
`P1 N266G`: “oxyanion analog dissociation constant” 2.58 µM (tungstate, free oxyanion; microfluidic competitive inhibition; in vitro, cell-free expressed; not given, derived from inhibition constants, unchanged parent 2230 nM; lower = stronger binding).
